# Assay results pooled from the literature.
# A part holds a random share of what one study measured.

# Block 1
# Target: Histone acetyltransferase KAT6A, both winged helices, GST fusion (KAT6A, Homo sapiens, UniProt Q92794, residues 1-181)
# Method: protein binding microarray
# Molecule type: double-stranded DNA, one strand shown
# Sample: in vitro
# Tested at: not given
# Notes: 8-mer, flanks averaged, mean of 2 arrays, mostly near background
# Baseline: not given
# Reading: higher = stronger binding
# Residues (chain): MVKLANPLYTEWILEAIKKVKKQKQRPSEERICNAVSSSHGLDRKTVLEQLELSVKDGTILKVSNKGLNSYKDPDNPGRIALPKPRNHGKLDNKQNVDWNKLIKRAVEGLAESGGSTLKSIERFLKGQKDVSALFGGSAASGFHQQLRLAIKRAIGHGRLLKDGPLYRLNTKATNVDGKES
Strand,E-score
GAACTCAA,-0.184
AAGACGCC,0.16
AGTTTGGG,-0.181
ATTATTGC,0.0396
GGCGATAC,0.153
ACGCATAT,0.0165

# Block 2
# Target: Sal-like protein 4, full length isoform B (SALL4, Homo sapiens, UniProt Q9UJQ4-2, residues 1-616)
# Method: universal PBM
# Molecule type: double-stranded DNA, one strand shown
# Sample: in vitro
# Tested at: not given
# Notes: 8-mer, flanks averaged, mean of replicates
# Reading: higher = stronger binding
# Construct (chain): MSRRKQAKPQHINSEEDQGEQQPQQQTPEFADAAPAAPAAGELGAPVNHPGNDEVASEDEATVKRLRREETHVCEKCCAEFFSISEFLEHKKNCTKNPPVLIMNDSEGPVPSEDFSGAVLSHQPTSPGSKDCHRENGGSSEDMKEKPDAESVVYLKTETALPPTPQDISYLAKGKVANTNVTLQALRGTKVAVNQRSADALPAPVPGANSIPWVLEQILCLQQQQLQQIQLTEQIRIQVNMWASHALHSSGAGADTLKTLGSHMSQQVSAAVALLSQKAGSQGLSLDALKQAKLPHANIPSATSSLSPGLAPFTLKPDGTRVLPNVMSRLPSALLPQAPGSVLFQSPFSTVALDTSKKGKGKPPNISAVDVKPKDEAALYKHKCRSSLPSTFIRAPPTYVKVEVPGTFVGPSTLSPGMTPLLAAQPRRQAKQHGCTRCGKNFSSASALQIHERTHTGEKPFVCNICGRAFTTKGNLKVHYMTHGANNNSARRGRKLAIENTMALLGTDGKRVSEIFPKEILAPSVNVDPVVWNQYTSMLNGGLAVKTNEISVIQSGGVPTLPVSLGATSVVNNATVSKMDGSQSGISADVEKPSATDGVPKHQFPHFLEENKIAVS
Strand,E-score
GAAGAAGA,0.0634
AATCCCGT,-0.097
ACCCGTTA,-0.00227
GCGCCACC,-0.346
AGGCGTAG,-0.143
CACGCAGA,0.0278

# Block 3
# Target: Interferon regulatory factor 5, full length, phosphomimetic (IRF5, Homo sapiens, UniProt Q13568-2, residues 1-514, S451D/S453D/S456D/S462D)
# Method: protein-binding microarray
# Molecule type: double-stranded DNA, one strand shown
# Sample: in vitro
# Tested at: 940 nM top
# Notes: 60-bp whole probe
# Together with: salmon DNA 0.4 mg/ml
# Baseline: random background probes
# Reading: higher = stronger binding
# All sequences stand within: GCCTAGCAC … GTCTTGATTCGCTTGACGCTGCTG
Strand,fitted relative affinity
AACGGTATCGACTTTCGGGACGTGCTA,4.71 z-score
TACGGTTTCGGGTTTCGGGACGTGCTA,8.6 z-score
TTAGGTTTCGACTATGGGTTAGTGCTA,9.42 z-score
TTAGGTTTCCGTTCCCTTTAGTGCTAG,2.9 z-score
GACGGTTTCGACTATCGGGGCGTGCTA,8.65 z-score
TCATTTTCGTTTTTATTATTGTGCTAG,4.19 z-score

# Other studies, line by line
Substance,target,assay,test system,setting,scale,quantity,result
"PhoQ, residues 284 288 289 292 302 303 SSTLSG","PhoP, residues 12 14 15 18 19 AWHSL (Escherichia coli, UniProt P23836)","Sort-seq, measured: YFP reporter",E. coli,"PhoQ-PhoP variant library, together with: 10 µM Mg2+","baseline: high Mg2+ state, higher = stronger signaling",fold induction,2.2

# Some of these lines once more (block 2):
Strand,E-score
GAAGAAGA,0.0634
AATCCCGT,-0.097
